Measurements pooled from the literature.
Lines come from different studies, so protocols differ. Numbers after ± are the reported error.
BCHE: Cholinesterase (BCHE, Equus caballus, UniProt P81908)
UniProt P81908, sequence (whole entry, looked up): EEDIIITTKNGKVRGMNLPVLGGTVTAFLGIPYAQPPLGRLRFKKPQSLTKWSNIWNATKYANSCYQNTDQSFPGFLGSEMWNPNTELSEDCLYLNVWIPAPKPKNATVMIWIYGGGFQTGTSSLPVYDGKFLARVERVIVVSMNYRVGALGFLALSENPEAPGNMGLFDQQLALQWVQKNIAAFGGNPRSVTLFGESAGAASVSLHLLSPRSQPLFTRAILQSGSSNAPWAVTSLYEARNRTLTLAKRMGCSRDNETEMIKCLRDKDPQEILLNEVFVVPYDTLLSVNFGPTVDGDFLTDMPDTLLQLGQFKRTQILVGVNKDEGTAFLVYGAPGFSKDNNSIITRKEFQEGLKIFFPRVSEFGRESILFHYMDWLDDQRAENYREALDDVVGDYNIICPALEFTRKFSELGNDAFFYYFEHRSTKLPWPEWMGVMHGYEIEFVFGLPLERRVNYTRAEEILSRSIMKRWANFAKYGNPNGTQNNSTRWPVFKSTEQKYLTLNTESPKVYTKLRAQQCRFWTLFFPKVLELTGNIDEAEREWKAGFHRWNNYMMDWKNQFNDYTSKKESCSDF
MINK1: Misshapen-like kinase 1 (MINK1, Homo sapiens, UniProt Q8N4C8)
UniProt Q8N4C8, sequence (whole entry, looked up): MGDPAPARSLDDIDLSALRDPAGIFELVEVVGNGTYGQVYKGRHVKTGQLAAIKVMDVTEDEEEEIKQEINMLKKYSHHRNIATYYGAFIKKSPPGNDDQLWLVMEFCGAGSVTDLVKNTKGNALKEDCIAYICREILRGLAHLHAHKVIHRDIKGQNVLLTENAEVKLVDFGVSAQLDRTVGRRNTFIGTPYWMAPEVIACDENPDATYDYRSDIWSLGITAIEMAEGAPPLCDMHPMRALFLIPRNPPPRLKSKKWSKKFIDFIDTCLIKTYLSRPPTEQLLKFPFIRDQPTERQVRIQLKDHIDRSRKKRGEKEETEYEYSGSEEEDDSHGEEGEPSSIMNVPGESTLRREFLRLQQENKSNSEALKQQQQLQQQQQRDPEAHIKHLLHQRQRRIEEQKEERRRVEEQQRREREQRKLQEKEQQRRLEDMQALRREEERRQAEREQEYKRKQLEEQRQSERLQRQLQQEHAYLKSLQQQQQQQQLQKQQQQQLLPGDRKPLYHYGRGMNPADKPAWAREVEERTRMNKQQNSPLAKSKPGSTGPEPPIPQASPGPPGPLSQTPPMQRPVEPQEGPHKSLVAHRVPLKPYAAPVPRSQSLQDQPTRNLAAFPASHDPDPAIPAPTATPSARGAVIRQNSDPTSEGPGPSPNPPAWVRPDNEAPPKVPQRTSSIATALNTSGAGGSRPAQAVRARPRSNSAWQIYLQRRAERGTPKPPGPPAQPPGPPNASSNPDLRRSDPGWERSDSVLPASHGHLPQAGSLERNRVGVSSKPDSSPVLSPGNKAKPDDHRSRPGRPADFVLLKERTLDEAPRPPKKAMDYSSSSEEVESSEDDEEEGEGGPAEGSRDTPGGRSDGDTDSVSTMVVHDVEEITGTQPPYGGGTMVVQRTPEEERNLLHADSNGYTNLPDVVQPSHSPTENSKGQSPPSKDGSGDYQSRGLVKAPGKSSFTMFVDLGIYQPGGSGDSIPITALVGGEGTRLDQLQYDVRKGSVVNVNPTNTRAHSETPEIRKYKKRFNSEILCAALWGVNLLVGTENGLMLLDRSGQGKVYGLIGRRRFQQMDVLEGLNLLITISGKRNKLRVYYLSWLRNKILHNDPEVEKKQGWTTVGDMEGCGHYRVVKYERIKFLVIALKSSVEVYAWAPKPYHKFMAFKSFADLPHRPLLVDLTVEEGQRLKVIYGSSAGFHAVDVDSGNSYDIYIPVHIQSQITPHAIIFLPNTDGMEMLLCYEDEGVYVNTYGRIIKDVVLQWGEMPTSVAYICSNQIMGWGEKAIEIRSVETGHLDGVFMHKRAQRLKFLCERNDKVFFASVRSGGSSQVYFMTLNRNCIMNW
UniProt Q9Y2J8, sequence (whole entry, looked up): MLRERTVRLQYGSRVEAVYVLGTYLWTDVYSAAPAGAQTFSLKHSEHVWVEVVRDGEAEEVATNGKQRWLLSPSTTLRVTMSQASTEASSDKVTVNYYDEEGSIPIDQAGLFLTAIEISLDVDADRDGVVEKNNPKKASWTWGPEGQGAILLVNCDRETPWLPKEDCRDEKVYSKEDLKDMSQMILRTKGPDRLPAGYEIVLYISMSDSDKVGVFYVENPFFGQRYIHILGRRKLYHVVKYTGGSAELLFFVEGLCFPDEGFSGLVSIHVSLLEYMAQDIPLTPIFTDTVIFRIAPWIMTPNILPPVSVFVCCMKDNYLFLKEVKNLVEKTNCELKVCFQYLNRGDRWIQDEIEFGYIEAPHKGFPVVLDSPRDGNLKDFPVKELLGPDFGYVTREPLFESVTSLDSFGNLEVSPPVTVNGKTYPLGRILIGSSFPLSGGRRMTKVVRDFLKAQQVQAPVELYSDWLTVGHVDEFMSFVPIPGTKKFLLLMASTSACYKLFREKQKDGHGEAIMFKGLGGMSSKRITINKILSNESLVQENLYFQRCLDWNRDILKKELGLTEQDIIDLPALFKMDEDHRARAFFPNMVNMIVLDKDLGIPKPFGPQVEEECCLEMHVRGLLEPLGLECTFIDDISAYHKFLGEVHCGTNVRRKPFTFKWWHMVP
UniProt Q9BYW2, sequence (whole entry, looked up): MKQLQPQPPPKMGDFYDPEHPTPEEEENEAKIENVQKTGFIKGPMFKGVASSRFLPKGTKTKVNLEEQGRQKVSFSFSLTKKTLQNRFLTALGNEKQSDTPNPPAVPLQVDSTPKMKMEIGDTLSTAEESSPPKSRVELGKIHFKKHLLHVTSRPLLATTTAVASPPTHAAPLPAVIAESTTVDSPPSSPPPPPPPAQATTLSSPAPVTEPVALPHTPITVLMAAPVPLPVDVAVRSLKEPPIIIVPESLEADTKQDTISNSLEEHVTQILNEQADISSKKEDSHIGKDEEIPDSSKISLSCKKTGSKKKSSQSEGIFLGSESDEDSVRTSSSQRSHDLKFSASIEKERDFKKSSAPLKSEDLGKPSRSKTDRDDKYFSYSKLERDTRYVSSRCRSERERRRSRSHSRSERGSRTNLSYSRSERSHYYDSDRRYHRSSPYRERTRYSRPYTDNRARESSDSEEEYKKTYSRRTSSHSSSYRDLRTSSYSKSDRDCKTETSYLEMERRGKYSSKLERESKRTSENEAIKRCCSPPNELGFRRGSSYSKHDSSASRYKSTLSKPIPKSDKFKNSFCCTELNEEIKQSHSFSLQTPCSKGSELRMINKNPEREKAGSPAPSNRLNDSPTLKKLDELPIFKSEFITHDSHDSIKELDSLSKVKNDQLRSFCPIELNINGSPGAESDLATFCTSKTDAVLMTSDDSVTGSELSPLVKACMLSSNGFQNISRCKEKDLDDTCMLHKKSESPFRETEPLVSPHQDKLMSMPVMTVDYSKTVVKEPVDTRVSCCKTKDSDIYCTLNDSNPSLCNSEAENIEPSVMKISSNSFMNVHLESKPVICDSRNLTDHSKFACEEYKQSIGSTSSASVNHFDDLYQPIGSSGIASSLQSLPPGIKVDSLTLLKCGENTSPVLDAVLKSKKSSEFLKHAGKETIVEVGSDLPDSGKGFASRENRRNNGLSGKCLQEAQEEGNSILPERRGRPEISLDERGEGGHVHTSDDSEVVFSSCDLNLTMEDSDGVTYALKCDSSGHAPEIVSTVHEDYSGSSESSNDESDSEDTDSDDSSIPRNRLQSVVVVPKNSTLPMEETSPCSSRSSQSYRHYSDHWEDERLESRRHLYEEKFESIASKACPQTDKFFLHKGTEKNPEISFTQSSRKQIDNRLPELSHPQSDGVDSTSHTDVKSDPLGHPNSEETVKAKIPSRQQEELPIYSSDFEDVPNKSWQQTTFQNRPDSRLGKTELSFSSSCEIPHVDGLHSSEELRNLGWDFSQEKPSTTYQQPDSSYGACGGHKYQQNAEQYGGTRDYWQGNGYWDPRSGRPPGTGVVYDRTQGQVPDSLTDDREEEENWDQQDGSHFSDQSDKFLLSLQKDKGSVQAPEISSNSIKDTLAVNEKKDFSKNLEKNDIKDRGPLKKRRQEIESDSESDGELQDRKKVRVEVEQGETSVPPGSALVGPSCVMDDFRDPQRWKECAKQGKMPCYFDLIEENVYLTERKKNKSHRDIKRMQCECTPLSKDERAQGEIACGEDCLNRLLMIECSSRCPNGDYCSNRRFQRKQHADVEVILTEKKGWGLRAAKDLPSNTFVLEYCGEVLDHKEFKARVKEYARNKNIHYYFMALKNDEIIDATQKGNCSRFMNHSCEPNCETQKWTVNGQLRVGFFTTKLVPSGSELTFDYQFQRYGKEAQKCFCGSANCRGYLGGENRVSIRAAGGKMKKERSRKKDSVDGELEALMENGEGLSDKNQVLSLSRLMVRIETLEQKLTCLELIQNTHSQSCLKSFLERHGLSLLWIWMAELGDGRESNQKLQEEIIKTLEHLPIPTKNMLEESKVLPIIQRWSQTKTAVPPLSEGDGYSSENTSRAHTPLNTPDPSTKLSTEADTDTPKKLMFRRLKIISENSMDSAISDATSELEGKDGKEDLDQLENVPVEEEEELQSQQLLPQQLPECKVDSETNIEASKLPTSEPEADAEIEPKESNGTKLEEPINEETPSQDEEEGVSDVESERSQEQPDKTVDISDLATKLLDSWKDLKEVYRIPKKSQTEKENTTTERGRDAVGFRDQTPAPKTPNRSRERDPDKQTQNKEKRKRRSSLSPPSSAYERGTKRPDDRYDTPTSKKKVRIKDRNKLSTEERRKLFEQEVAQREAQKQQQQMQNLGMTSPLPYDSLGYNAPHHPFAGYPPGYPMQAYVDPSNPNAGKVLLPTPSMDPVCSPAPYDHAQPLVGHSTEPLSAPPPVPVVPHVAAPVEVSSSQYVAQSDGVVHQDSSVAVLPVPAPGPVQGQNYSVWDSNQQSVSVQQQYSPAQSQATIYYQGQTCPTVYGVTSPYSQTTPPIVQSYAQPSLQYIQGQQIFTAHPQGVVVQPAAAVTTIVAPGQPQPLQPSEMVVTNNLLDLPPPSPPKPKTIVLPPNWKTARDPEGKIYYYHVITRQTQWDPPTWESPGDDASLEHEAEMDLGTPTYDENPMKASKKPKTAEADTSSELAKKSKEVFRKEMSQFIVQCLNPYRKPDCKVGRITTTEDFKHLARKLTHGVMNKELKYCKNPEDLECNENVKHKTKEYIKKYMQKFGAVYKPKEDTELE

O=C(CN1CN(c2ccccc2)C2(CCN(C(=O)c3cnc4[nH]ncc4c3)CC2)C1=O)NCC(F)(F)F
inhibition (EGFR (Homo sapiens, UniProt P00533, del746-750); inhibitor; concentration not given): < 50%

O=C1NC2(CC2)COc2ncc(F)cc2[C@H]2COCCN2c2ccn3ncc1c3n2
alanine aminotransferase activity (Sprague-Dawley rat, female, serum; oral, 5 mg/kg/day, 4 weeks daily, end of recovery period): 22.6 ± 7.4 U/L

C[C@H](NCc1ccc(-c2ccc(C(F)(F)F)cc2)cc1)C(N)=O
inhibition (adenosine transporter, guinea pig; binding, radioligand binding; biochemical; 1 µM, with: [3H]nitrobenzylthioinosine 0.50 nM): 5%

COc1ccccc1N1CCN(CCCCN2CCCc3ccccc3C2=O)CC1
inhibition (HTR2C (Homo sapiens, UniProt P28335); radioligand binding; concentration not given, with: [3H]mesulergine): 77.1%

N[C@H](C(=O)N1CCCC1)C1CCN(c2nccc3c(-c4ncc(Cl)cc4Cl)cccc23)CC1
inhibition (PADI2 (Homo sapiens, UniProt Q9Y2J8); enzyme activity, inhibitor; 24 µM, with: Ca2+ 0.25 mM): 102%

CCOC(=O)[C@](CC)(CCCSCCOCCOCCNC(=O)c1ccc(-c2c3ccc(=N)c(S(=O)(=O)O)c-3oc3c(S(=O)(=O)O)c(N)ccc23)c(C(=O)O)c1)NC(=O)c1ccc(C2CC2)c(Cc2ccc(F)cc2)n1
inhibition (XDH (Bos taurus, UniProt P80457); enzyme activity, inhibitor; 10 µM): -6%

CS(C)(=O)=Nc1ccc(-c2ccc(-c3nc4cc(O[C@@H]5CO[C@H]6[C@@H]5OC[C@H]6O)[nH]c4cc3F)cc2)cc1
inhibition (SSTR1 (Homo sapiens, UniProt P30872); calcium signal, antagonist; 10 µM): -2%

C1CCNC1
inhibition (BCHE; enzyme activity, inhibitor, Ellman; 20 µM): 45.9%

O=[N+]([O-])c1ccc(/C=N/C23CC4CC(CC(C4)C2)C3)o1
inhibition (Procathepsin L (CTSL, Homo sapiens, UniProt P07711); enzyme activity, inhibitor; 100 µM, with preincubation): 6%

CN(/N=C/c1ccccc1C(=O)O)c1nc(-c2ccccc2Cl)cs1
inhibition (MINK1; enzyme activity, inhibitor; 1 µM): -5.99%

CC(C)[C@H]1NC(=O)C[C@H]2/C=C/CCSSC[C@@H](NC1=O)C(=O)N[C@H](Cc1cccc3ccccc13)C(=O)NCC(=O)O2
inhibition (MINK1; enzyme activity, inhibitor; 10 µM): 3.6%

O=C(O)c1ccccc1/C=N/Nc1nc(-c2ccccc2Cl)cs1
inhibition (Cyclin-dependent kinase 18, with cyclin Y (CDK18, Homo sapiens, UniProt Q07002); enzyme activity, inhibitor; 1 µM): -1.57%

CC(=O)NC[C@@H]1[C@@H](O)C[C@H]2[C@H](O)C[C@@H](CO)N12
inhibition (Spodoptera litura β-N-acetylglucosaminidase; crude enzyme; 1.71 µM, run 1, with: p-nitrophenyl GlcNAc): 76.7%

CC(C)N
inhibition (BCHE; enzyme activity, inhibitor, Ellman; 20 µM): 38.3%

CN(C)[C@H]1C[C@@]23CC[C@@]4(O2)C(=CC[C@]2(C)[C@@H](c5ccc6ccncc6c5)CC[C@H]24)C=C3[C@@H](O)[C@@H]1O
inhibition (Diacylglycerol kinase eta (DGKH, Homo sapiens, UniProt Q86XP1); ATP probe labelling, inhibitor, KiNativ profiling; 0.1 µM): -2.4%

COc1ccc(F)cc1S(=O)(=O)Nc1cnc2c(c1)C(=O)NCCO2
inhibition (CHRM4 (Homo sapiens, UniProt P08173); ligand displacement, radioligand; 10 µM): 3%

CN[C@@H]1[C@H](O)[C@H](NC)[C@H]2O[C@]3(O)[C@H](O[C@@H]2[C@H]1O)O[C@H](C)C[C@H]3NC(=O)Cc1cc(Cl)ccn1
inhibition (HRH3 (Homo sapiens, UniProt Q9Y5N1); ligand displacement, radioligand; 10 µM): 1%

C=CC(=O)Nc1cc(-c2nn(C3CCC(N4CCN(C(C)=O)CC4)CC3)c3ncnc(N)c23)ccc1Oc1ccccc1 (stereo not shown)
inhibition (ERN1 (Homo sapiens, UniProt O75460); inhibitor, KiNativ profiling; biochemical; 2 µM): -14.6%

CCC1CC(c2ccc(C(=O)O)cc2C)=NN1c1ccc(C#N)c(Cl)c1 (stereo not shown)
inhibition (SETD2 (Homo sapiens, UniProt Q9BYW2); enzyme activity, inhibitor; 10 µM): 17%

A few entries again:
C1CCNC1
inhibition (BCHE; enzyme activity, inhibitor, Ellman; 20 µM): 45.9%

O=[N+]([O-])c1ccc(/C=N/C23CC4CC(CC(C4)C2)C3)o1
inhibition (Procathepsin L (CTSL, Homo sapiens, UniProt P07711); enzyme activity, inhibitor; 100 µM, with preincubation): 6%
